{"data": "Measurements pooled from the literature", "note": "Each numbered part is a random draw from the data of one study; scales do not carry over between parts. Changes are numbered by the printed parent chain."}
{"data": "Series 1", "target": "CCNF, cyclin fold, Cln2 fusion (human)", "method": "yeast growth competition, sequencing", "medium": "yeast", "setting": "strong parent motif", "reference": "not given", "reading": "higher = stronger binding", "starting sequence": "E2F1 docking peptide (human); PPVKRRLDFETDH"}
{"Substitution": "D8C", "normalised enrichment score": 7.81}
{"Substitution": "E10G", "normalised enrichment score": 7.86}
{"Substitution": "D8W", "normalised enrichment score": 9.21}
{"Substitution": "F9E", "normalised enrichment score": 0.975}
{"Substitution": "V3E", "normalised enrichment score": 6.72}
{"Substitution": "D12L", "normalised enrichment score": 7.77}
{"Substitution": "R5H", "normalised enrichment score": 1.41}
{"Substitution": "D8R", "normalised enrichment score": 8.1}
{"Substitution": "K4A", "normalised enrichment score": 6.38}
{"Substitution": "R5I", "normalised enrichment score": 2.3}
{"Substitution": "F9R", "normalised enrichment score": 0.925}
{"data": "Series 2", "target": "Ras GTPase-activating protein-binding protein 1, RRM domain (G3BP1, Homo sapiens, UniProt Q13283)", "method": "RNA Bind-n-Seq", "molecule type": "RNA", "medium": "in vitro", "concentration": "1 µM", "setting": "whole 134-nt RNA, ends assumed", "together with": "150 mM KCl", "reference": "input library", "reading": "higher = stronger binding", "shared flanks, not repeated": "GGGAGUUCUACAGUCCGACGAUC … UGGAAUUCUCGGGUGUCAAGG", "sequence of UniProt Q13283 (whole entry, looked up)": "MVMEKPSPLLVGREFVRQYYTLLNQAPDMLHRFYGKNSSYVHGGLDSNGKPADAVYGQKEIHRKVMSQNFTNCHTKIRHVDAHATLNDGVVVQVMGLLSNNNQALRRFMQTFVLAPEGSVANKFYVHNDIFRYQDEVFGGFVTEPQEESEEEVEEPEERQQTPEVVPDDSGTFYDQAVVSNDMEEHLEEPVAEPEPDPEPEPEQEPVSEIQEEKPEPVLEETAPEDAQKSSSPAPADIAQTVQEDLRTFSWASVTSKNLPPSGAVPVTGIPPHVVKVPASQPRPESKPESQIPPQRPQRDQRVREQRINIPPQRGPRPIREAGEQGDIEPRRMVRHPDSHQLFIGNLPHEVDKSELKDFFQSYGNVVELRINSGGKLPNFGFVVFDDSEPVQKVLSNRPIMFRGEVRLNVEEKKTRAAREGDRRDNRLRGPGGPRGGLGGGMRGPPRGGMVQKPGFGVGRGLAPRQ"}
{"Oligonucleotide": "UGAAAAUGCUUUCAUGUUAAUUGUGUACACACAUUUCAUCUGUAUCCCUGUUUCUUUUCUCCCUACAGAAACAUAUGAGGAUUUUGAUAC", "log2 enrichment": -0.126}
{"Oligonucleotide": "UAACUUUAGAGGAGGAUCUGAUGGAUAUGGCAGUGGACGUGGAUUUGGGGAUGGCUAUAAUGGGUAUGAAGGAGGACCUGGAGGUGGCAA", "log2 enrichment": -0.345}
{"Oligonucleotide": "AAGUCCUGUGCUACACAUCGUAUGUACCGAAUCGGGGUGGGGAGGGGUUUUUGGGGAAAGUAUUAUGUUACGCCGUUCGGAUCUGCACUU", "log2 enrichment": 0.813}
{"Oligonucleotide": "UCAAGUCCUGUGCUACACAUCGUAUGUACCGAAUCGGGAAAGGGAAAGGGUGGGAAAGUAUUAUGUUACGCCGUUCGGAUCUGCACUUCC", "log2 enrichment": 0.678}
{"Oligonucleotide": "AGUCCUGUGCUACACAUCGUAUGUACCGAAUCGGAAAGGAAAAAAAGGUUUUUUUGGAAAGUAUUAUGUUACGCCGUUCGGAUCUGCACU", "log2 enrichment": -0.142}
{"Oligonucleotide": "CAAGUCCUGUGCUACACAUCGUAUGUACCGAAUCGGUUUUUUUGGAGGAAAAAGGAAAGUAUUAUGUUACGCCGUUCGGAUCUGCACUUC", "log2 enrichment": -0.165}
{"Oligonucleotide": "UGGCCCUGGUGGCAUGCGGGGAGGAAGAGGUGGCCUCAUGGAUCGUAGUGGUCCCGGUGGAAUGUUCAGAGGUGGCCGUGGUGGAGACAG", "log2 enrichment": 0.656}
{"Oligonucleotide": "ACCAUGCAGGUGGGCAUCUUUGGGAAGUGGGGCAAGGGGGGGAUAGGGAGGGGGGUGACACUUUGGGAACAGGUGGUCCCAGGUCGUUUC", "log2 enrichment": 0.922}
{"Oligonucleotide": "UCCUGUGCUACACAUCGUAUGUACCGAAUCGGGGAAAAAAGGAAAAAAGGAAAAAAGGGAAAGUAUUAUGUUACGCCGUUCGGAUCUGCA", "log2 enrichment": 0.0758}
{"data": "Series 3", "target": "Probable WRKY transcription factor 50, DNA-binding domain (WRKY50, Arabidopsis thaliana, UniProt Q8VWQ5, residues 99-173)", "method": "DNA-protein interaction ELISA", "molecule type": "double-stranded DNA, one strand shown", "medium": "in vitro, bacterial lysate", "concentration": "not given", "setting": "whole dsDNA probe, crude lysate protein", "reference": "highest signal in screen", "reading": "higher = stronger binding", "sequence of UniProt Q8VWQ5 (99-173, looked up)": "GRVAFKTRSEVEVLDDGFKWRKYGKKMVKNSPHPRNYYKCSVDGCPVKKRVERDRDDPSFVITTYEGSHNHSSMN"}
{"Oligonucleotide": "AAAAAAGTTTCCTACTTGTGTCTGTGAAAA", "relative absorbance": "16.9 % of maximum"}
{"Oligonucleotide": "AAAAAATGACCAGGCCTCGAGCAAAAA", "relative absorbance": "31.3 % of maximum"}
{"Oligonucleotide": "AAAAAAACGGTGTCATAGTATTAGTGAAAA", "relative absorbance": "28.3 % of maximum"}
{"Oligonucleotide": "AAAAAAACGCTCAAGTCTATCAGTAGAAAA", "relative absorbance": "36.7 % of maximum"}
{"Oligonucleotide": "AAAAAACCTTACTGTTGATTCTGGTTAAAA", "relative absorbance": "40.1 % of maximum"}
{"Oligonucleotide": "AAAAAAGTCGTCACGCACGTGAATACAAAA", "relative absorbance": "30 % of maximum"}
{"Oligonucleotide": "AAAAAATATTCGCCGGTAGCCACGCTAAAA", "relative absorbance": "35.2 % of maximum"}
{"Oligonucleotide": "AAAAAACAACTTGGAGGATTTACAGCAAAA", "relative absorbance": "16 % of maximum"}
{"Oligonucleotide": "AAAAAATTCCGGCTTGACGCTGCATAAAAA", "relative absorbance": "29.6 % of maximum"}
{"Oligonucleotide": "AAAAAAAAATGCTAGCGCGTACGTAAAAAA", "relative absorbance": "28.4 % of maximum"}
{"Oligonucleotide": "AAAAAAACAGCTCGGTGCCACTGTGGAAAA", "relative absorbance": "20.6 % of maximum"}
{"data": "Other studies, line by line"}
{"Molecule": "PhoQ, residues 284 288 289 292 302 303 AGGCYF", "target": "PhoP, residues 12 14 15 18 19 LHATL (Escherichia coli, UniProt P23836)", "assay": "Sort-seq, item: YFP reporter", "system": "E. coli", "setting": "PhoQ-PhoP variant library, together with: 10 µM Mg2+", "scale": "reference: high Mg2+ state, higher = stronger signaling", "quantity": "fold induction", "value": 24.3}
